Measured values from different studies.
Compare with care: the assays were run in different laboratories. ± gives the spread as reported.
Ryanodine receptor 1: Ryanodine receptor 1 (Oncorhynchus mykiss, UniProt A0A8C7UX14)
CNR1: Cannabinoid receptor 1 (CNR1, Homo sapiens, UniProt P21554)
UniProt P21554, sequence (whole entry, looked up): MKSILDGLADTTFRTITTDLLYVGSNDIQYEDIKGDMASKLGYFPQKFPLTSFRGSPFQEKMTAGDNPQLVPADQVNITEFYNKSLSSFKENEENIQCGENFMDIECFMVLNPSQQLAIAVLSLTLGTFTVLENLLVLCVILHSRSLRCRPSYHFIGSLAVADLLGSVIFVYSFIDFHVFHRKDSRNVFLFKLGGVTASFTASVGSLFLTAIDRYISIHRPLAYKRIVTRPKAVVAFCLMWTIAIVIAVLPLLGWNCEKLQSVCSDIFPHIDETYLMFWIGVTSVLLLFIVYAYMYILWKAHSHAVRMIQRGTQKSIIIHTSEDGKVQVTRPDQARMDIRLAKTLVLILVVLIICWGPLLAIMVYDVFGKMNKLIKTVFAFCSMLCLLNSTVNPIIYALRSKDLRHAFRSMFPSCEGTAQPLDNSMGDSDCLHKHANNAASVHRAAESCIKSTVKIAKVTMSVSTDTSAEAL
Oprd1: Delta-type opioid receptor (Oprd1, Rattus norvegicus, UniProt P33533)
UniProt P33533, sequence (whole entry, looked up): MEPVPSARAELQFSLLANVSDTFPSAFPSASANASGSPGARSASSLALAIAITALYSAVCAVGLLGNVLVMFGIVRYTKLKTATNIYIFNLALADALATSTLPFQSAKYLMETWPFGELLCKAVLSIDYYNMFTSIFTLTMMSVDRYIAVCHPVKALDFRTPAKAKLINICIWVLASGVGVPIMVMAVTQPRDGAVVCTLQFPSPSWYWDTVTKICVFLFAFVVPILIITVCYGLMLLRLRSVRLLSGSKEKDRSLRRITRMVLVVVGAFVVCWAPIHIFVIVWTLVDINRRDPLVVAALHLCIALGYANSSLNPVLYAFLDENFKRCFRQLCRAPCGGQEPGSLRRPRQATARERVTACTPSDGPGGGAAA
Gabrg2/Gabra1 with β3 subunit: Gabrg2/Gabra1, with β3 subunit (Rattus norvegicus, UniProt P18508+P62813)
UniProt P18508, sequence (whole entry, looked up): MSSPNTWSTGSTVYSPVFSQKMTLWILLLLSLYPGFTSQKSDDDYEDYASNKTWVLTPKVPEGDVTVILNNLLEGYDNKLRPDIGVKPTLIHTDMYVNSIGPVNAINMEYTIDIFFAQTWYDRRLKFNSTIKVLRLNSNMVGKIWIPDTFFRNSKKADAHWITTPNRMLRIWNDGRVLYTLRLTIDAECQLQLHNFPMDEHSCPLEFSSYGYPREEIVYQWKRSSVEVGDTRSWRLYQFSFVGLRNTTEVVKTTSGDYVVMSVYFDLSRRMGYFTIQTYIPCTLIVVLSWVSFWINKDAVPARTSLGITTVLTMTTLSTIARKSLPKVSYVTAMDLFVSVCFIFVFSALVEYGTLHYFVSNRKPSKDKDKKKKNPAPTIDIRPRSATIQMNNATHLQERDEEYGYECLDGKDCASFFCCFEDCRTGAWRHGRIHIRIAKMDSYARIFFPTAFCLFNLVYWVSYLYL
UniProt P62813, sequence (whole entry, looked up): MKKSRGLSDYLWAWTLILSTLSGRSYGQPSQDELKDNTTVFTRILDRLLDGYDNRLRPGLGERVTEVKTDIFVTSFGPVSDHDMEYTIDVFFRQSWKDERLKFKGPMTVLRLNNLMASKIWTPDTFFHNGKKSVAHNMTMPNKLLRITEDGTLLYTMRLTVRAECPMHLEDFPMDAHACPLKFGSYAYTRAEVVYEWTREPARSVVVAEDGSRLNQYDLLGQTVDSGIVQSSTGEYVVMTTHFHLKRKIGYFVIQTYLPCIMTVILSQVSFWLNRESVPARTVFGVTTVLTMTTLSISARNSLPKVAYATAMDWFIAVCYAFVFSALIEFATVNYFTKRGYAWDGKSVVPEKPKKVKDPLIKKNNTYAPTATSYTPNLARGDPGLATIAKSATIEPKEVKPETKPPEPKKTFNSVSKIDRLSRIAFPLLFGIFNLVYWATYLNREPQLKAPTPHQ
UniProt P41180, sequence (whole entry, looked up): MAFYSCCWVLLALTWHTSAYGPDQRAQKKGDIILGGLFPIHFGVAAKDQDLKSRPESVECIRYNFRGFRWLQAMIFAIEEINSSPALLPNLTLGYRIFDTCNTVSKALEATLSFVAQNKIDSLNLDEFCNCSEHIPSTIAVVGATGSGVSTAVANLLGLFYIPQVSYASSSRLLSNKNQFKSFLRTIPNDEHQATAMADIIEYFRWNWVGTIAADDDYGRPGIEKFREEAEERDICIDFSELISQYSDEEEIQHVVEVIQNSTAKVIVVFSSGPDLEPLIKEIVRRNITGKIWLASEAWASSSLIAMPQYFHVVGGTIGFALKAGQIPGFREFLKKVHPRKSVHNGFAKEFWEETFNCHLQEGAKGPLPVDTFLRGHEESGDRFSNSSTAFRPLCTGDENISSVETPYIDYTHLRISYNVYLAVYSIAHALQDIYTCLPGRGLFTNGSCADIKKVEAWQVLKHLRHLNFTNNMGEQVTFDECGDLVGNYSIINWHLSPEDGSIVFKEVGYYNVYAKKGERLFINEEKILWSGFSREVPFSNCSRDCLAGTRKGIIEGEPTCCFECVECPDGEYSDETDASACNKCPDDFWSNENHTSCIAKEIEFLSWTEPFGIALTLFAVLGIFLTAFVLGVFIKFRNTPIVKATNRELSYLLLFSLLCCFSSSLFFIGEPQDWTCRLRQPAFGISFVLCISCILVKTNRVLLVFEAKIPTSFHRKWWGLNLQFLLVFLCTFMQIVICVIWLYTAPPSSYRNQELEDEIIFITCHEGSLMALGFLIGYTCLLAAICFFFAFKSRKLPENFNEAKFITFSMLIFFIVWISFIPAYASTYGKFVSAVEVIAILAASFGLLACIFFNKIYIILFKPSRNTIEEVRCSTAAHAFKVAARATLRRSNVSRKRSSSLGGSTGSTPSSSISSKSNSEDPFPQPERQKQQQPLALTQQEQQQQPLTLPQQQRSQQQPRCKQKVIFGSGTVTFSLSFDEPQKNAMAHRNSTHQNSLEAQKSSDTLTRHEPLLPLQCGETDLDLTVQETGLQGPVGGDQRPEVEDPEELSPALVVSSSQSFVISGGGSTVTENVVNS
UniProt P28471, sequence (whole entry, looked up): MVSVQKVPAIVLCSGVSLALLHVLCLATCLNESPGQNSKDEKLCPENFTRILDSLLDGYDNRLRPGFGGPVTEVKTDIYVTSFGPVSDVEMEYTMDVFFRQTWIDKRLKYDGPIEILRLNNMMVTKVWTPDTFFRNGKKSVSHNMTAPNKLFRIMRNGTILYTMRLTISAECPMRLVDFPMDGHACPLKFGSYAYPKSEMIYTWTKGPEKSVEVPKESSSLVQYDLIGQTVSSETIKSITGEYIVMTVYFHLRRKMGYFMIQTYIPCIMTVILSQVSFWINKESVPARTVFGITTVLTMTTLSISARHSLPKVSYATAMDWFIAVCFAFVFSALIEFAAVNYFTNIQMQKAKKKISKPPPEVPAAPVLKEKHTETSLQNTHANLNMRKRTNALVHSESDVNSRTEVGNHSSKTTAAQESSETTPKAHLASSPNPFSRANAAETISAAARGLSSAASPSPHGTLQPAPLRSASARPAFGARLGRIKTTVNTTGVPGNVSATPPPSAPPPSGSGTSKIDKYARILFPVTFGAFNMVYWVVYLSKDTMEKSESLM

| Compound | target | test | test system | setting | scale | Emax [%] |
| --- | --- | --- | --- | --- | --- | --- |
| Clc1cc(Cl)c(-c2cc(Cl)c(Cl)cc2Cl)cc1Cl | Ryanodine receptor 1 | [3H]ryanodine binding, activator | trout muscle microsomes | concentration not given | relative to: DMSO | > 160 |
| CC(C)C[C@H](NC(=O)[C@@H](NC(=O)[C@H](CO)NC(=O)[C@@H](NC(=O)[C@H](CCCNC(=N)N)NC(=O)[C@H](CO)NC(=O)[C@H](CC(C)C)NC(=O)[C@H](CC(=O)O)NC(=O)[C@H](CC(C)C)NC(=O)[C@H](CC(C)C)NC(=O)[C@@H](NC(=O)CNC(=O)[C@H](Cc1ccccc1)NC(=O)[C@H](CO)NC(=O)[C@@H](N)[C@@H](C)O)C(C)C)[C@@H](C)O)C(C)C)C(=O)O | CASR (Homo sapiens, UniProt P41180) | intracellular Ca2+ | HEK cells, full-length GPR64-transfected | 50 µM | relative to: 7.49 mM Ca2+ in vector cells | 92 ± 1.04 |
| CCOC(=O)c1ncn2c1CN(C)C(=O)c1cc(F)ccc1-2 | Gabrg2/Gabra4, with β3 subunit (Rattus norvegicus, UniProt P18508+P28471) | GABA-induced chloride current, two-electrode voltage clamp | Xenopus oocytes | rat α4β3γ2 receptor, with: GABA EC3 | relative to: GABA EC3 alone | 181 ± 10 |
| NC(=O)N1CCC[C@@H](CNC(=O)c2nn(Cc3ccc(F)cc3)c3ccccc23)C1 | CNR1 | calcium mobilization, agonist | CHO-K1 expressing Gαq16 | – | relative to: CP55,940 maximum | 79 ± 5 |
| NC(=O)[C@@H]1CSSC[C@@H](NC(=O)[C@@H](N)Cc2ccc(O)cc2)C(=O)N[C@@H](Cc2ccccc2)C(=O)N[C@@H](Cc2cccc3ccccc23)C(=O)N1 | Oprd1 | G-protein activation, agonist | C6 cell membranes | – | relative to: SNC80 at 10 µM | 15 to 23 |
| CNC(=O)c1cc2c(cn1)[nH]c1ccccc12 | Gabrg2/Gabra1 with β3 subunit | GABA-induced chloride current, two-electrode voltage clamp | Xenopus oocytes | with: GABA at EC3 | – | 88 ± 5 |
| CC(C)(NC(=O)c1nn(Cc2ccc(C#N)cc2)c2ccccc12)c1cccc(C(N)=O)c1 | CNR1 | calcium mobilization, agonist | CHO-K1 expressing Gαq16 | – | relative to: CP55,940 maximum | 15 ± 3 |
| Clc1ccc(Cl)c(-c2c(Cl)ccc(Cl)c2Cl)c1 | Ryanodine receptor 1 | [3H]ryanodine binding | rainbow trout, skeletal muscle microsomes | up to 20 µM | relative to: DMSO | 237 ± 5.69 |
| CC(C)(C)OC(=O)c1ncn2c1[C@@H]1CCCN1C(=O)c1c(Br)cccc1-2 | Gabrg2/Gabra1 with β3 subunit | GABA-induced chloride current, two-electrode voltage clamp | Xenopus oocytes | with: GABA at EC3 | – | 138 ± 10 |
| CC(C)(NC(=O)c1nn(Cc2ccc(F)cc2)c2ccccc12)c1cccc(NC(N)=O)c1 | CNR1 | calcium mobilization, agonist | CHO-K1 expressing Gαq16 | – | relative to: CP55,940 maximum | 40 ± 9 |
| Clc1ccc(-c2c(Cl)ccc(Cl)c2Cl)cc1Cl | Ryanodine receptor 1 | [3H]ryanodine binding | rainbow trout, skeletal muscle microsomes | up to 20 µM | relative to: DMSO | 120 ± 4.44 |
| CC(C)(NC(=O)c1nn(Cc2ccc(F)cc2)c2ccccc12)C1CCCN(CC(N)=O)C1 (stereo not shown) | CNR1 | calcium mobilization, agonist | CHO-K1 expressing Gαq16 | – | relative to: CP55,940 maximum | 44 ± 4 |
| Brc1ccc(Oc2cc(Br)ccc2Br)c(Br)c1 | Ryanodine receptor 1 | [3H]ryanodine binding, activator | trout muscle microsomes | concentration not given | relative to: DMSO | 167 |
| NC(=O)[C@@H]1CSCSC[C@@H](NC(=O)[C@@H](N)Cc2ccc(O)cc2)C(=O)N[C@@H](Cc2cccc3ccccc23)C(=O)N[C@@H](Cc2ccccc2)C(=O)N1 | Oprd1 | G-protein activation, agonist | C6 cell membranes | – | relative to: SNC80 at 10 µM | 15 to 23 |
| Clc1ccc(Cl)c(-c2c(Cl)c(Cl)cc(Cl)c2Cl)c1 | Ryanodine receptor 1 | [3H]ryanodine binding, activator | trout muscle microsomes | concentration not given | relative to: DMSO | > 160 |
| CC(C)(NC(=O)c1nn(CC2CCCC2)c2ccccc12)c1cccc(C(N)=O)c1 | CNR1 | calcium mobilization, agonist | CHO-K1 expressing Gαq16 | – | relative to: CP55,940 maximum | 67 ± 4 |
